Measured values collected from several papers.
Protocols differ between the studies behind these lines. ± marks the error that the study gave.
Sequence of UniProt O75164 (whole entry, looked up): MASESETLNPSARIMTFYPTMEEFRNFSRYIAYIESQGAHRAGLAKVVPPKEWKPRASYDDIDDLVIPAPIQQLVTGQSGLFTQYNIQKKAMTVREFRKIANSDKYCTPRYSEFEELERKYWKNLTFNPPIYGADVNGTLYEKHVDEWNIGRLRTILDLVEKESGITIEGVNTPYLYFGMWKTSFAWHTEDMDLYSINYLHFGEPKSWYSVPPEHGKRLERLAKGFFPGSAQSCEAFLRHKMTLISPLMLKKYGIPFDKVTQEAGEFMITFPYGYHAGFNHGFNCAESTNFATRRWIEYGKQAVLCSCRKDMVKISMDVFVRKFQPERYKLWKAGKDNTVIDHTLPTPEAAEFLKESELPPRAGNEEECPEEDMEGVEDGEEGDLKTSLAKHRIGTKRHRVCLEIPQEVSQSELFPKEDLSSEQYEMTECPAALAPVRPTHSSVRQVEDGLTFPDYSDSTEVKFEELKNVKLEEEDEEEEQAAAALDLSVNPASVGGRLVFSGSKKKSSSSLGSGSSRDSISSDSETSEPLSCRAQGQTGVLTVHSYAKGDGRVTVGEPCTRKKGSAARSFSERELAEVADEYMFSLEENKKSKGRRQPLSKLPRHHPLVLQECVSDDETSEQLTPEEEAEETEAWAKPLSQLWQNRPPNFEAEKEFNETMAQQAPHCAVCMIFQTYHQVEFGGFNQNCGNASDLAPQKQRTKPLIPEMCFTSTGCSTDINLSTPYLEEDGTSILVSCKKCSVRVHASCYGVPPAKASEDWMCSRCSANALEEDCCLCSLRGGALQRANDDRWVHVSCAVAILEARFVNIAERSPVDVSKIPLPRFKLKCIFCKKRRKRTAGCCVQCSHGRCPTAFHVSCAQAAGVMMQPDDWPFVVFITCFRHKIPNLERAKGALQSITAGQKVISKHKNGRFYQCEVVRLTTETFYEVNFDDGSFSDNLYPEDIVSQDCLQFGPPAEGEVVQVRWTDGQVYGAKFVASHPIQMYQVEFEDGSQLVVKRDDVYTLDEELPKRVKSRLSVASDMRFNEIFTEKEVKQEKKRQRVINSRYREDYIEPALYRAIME
Sequence of UniProt P14416 (whole entry, looked up): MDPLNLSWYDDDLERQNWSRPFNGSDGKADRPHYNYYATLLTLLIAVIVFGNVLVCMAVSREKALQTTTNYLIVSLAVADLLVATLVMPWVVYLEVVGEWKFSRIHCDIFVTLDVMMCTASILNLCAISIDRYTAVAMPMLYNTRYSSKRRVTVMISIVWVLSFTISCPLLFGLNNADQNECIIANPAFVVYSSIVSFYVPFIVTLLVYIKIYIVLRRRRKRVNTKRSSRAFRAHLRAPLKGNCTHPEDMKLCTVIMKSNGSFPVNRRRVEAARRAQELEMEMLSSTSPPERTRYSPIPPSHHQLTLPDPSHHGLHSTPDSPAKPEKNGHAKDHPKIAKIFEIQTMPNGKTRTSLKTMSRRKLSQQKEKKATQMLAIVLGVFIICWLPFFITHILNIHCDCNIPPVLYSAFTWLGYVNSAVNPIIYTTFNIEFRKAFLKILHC

Molecule | target or system | test | system | conditions | scale | measurement | value
SWIIELLE (ELF3 137-144 (Homo sapiens, UniProt P78545)) | MED23 fragment (Homo sapiens) | competitor, fluorescence polarisation | peptide | – | – | Ki | 4.27 µM
CCCCc1oc2ccccc2c1C(=O)c1cc(I)c(OCC[N+](C)(C)C)c(I)c1 | Lysine-specific demethylase 4A, double tudor domain (KDM4A, Homo sapiens, UniProt O75164) | fluorescence polarization | – | – | – | IC50 | 34 ± 14 µM
Cc1ccc(C=NNC(=S)N[N+](=O)[O-])cc1 | Leishmania major | parasite growth | J774.A1 | 72 h, intracellular, amastigote | – | IC50 | 680 µM
CCCC(CCC)C(=O)O | – | – | mouse, pilocarpine-induced seizures | oral, 300 mg/kg, 24 h | – | survival | 60%
O=[N+]([O-])NC(=S)NN=Cc1ccc(F)cc1 | Leishmania tropica | parasite growth, MTT | – | 72 h, promastigote | – | IC50 | 186 µM
O=C1CCc2ccc(OCCCCN3CCCN(c4cccc(Cl)c4Cl)CC3)nc2N1 | DRD2 (Homo sapiens, UniProt P14416) | β-arrestin recruitment, agonist | HTLA | – | relative to: quinpirole | Emax | 40 to 50%

A few entries again:
Molecule | target or system | test | system | conditions | scale | measurement | value
O=[N+]([O-])NC(=S)NN=Cc1ccc(F)cc1 | Leishmania tropica | parasite growth, MTT | – | 72 h, promastigote | – | IC50 | 186 µM
